Measured values collected from several papers.
Every numbered part comes from another study and shows a few of its results, in no order. Values joined by “and” are separate records of one study, mostly repeats; a detail may differ.
UniProt Q5S007, sequence (whole entry, looked up): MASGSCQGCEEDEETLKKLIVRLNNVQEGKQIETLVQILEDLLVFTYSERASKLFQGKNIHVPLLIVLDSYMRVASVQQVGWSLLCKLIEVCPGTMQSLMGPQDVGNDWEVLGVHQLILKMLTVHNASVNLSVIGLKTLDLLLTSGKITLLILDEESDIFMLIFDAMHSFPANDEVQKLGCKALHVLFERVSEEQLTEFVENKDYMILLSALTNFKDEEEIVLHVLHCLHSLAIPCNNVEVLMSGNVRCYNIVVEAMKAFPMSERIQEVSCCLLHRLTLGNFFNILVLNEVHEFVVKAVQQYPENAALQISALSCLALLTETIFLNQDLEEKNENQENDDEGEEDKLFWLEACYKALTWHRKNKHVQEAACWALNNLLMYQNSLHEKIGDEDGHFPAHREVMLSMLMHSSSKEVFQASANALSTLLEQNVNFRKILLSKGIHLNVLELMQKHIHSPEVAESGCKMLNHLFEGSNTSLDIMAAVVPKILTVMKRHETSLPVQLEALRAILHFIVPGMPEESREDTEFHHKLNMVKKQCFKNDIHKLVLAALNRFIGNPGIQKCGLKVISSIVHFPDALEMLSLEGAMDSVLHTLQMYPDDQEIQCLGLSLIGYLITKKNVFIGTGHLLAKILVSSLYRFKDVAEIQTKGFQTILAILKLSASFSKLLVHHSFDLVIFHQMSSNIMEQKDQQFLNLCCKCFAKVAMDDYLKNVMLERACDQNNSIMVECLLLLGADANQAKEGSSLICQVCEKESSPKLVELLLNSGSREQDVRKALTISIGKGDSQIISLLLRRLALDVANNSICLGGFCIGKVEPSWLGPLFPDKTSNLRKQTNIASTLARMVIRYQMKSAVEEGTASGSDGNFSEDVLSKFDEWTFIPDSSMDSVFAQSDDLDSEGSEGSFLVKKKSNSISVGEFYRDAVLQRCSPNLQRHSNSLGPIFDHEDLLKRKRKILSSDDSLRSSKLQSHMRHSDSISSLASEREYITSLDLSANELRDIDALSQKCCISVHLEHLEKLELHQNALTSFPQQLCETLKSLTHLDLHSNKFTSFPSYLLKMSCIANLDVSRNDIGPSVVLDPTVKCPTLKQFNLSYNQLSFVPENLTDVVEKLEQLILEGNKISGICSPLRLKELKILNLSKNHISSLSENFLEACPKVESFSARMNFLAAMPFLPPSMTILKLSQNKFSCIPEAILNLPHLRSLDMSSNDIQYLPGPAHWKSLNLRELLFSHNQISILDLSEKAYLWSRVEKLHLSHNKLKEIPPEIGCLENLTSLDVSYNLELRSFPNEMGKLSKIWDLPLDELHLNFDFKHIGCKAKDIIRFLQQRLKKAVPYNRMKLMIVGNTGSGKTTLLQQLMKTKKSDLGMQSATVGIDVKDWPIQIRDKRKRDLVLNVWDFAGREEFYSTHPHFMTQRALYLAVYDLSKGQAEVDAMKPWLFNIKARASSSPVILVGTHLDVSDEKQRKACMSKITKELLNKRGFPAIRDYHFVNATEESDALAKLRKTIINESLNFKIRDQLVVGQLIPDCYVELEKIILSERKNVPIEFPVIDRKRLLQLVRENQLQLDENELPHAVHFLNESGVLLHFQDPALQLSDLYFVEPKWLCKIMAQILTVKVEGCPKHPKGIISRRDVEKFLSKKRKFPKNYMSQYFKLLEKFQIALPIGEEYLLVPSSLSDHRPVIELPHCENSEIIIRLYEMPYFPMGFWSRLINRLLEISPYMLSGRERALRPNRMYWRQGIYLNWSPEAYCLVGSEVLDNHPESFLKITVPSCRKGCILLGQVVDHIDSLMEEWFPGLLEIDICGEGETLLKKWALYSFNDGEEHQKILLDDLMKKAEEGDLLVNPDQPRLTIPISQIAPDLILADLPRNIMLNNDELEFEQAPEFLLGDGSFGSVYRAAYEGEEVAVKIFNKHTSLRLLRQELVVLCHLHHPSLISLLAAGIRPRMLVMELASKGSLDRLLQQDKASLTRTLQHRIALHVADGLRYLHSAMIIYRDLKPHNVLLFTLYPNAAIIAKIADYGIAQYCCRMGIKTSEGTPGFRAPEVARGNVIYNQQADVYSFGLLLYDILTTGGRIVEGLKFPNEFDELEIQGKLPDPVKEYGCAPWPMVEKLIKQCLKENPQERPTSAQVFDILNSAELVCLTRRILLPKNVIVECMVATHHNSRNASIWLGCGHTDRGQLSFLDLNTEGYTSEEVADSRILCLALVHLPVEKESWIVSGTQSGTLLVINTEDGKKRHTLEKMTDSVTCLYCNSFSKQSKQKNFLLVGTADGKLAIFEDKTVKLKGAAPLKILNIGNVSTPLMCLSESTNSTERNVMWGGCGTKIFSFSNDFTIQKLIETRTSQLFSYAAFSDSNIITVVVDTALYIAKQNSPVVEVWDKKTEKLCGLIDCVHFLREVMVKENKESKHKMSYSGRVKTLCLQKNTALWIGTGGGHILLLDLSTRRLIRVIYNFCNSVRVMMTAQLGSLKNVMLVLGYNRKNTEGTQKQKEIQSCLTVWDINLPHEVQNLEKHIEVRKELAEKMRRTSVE
UniProt P50750, sequence (whole entry, looked up): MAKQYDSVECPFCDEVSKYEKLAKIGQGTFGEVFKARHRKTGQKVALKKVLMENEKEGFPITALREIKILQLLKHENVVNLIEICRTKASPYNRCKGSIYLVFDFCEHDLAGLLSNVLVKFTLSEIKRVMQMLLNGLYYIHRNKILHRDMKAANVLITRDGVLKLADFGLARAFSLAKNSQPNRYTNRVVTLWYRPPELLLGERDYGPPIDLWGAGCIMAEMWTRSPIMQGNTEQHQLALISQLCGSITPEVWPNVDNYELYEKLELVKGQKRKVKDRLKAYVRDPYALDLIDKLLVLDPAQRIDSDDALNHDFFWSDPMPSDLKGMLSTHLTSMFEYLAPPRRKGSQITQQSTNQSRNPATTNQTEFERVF
UniProt Q9Y243, sequence (whole entry, looked up): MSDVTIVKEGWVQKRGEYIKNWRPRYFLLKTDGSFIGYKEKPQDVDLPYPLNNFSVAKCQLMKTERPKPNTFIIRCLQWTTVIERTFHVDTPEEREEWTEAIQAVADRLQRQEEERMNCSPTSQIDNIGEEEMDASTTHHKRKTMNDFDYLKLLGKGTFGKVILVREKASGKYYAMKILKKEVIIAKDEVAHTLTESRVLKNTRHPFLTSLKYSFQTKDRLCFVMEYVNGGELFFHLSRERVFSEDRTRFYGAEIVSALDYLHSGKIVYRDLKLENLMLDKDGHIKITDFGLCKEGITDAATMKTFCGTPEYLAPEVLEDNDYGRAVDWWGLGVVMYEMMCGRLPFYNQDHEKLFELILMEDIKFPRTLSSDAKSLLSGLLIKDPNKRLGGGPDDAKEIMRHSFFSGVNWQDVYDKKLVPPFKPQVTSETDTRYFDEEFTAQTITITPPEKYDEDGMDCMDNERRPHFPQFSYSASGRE
UniProt P54756, sequence (whole entry, looked up): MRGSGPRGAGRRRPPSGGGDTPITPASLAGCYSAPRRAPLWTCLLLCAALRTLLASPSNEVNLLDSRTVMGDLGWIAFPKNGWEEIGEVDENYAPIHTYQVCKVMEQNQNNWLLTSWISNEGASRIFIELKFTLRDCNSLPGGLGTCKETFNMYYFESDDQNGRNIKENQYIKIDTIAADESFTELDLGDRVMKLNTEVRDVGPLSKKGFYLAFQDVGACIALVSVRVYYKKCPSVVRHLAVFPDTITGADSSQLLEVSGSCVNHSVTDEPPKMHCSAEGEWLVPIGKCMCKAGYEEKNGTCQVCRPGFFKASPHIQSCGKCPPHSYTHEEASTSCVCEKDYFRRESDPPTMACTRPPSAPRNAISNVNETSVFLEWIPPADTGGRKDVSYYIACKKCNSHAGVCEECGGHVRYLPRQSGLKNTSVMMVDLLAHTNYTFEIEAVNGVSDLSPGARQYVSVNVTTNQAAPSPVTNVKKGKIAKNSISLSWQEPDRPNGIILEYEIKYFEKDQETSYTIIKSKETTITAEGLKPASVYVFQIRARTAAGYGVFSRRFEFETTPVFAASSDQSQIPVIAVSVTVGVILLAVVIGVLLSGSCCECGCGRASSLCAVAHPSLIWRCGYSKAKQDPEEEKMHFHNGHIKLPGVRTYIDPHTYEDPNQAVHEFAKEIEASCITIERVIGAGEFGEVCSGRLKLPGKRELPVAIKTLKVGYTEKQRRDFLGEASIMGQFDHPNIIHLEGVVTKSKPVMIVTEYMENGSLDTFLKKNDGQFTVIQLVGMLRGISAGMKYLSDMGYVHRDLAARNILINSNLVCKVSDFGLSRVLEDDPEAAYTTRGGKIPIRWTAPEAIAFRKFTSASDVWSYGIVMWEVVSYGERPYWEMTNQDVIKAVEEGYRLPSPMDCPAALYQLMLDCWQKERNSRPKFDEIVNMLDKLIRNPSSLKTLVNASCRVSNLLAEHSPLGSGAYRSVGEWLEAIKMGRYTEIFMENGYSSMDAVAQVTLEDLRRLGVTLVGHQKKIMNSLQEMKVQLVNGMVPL
UniProt P53778, sequence (whole entry, looked up): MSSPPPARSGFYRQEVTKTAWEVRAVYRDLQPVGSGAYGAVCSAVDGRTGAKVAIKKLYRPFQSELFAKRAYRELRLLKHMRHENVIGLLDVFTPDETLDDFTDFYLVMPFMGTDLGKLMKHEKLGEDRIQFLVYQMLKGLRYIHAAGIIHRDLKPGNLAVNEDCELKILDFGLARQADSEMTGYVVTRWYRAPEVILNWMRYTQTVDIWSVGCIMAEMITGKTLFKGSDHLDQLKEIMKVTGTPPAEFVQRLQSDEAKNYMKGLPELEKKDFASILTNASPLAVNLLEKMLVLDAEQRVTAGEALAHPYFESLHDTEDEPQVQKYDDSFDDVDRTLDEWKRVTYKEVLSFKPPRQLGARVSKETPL

Study 1
Structure (SMILES): CCC(=NO)C(C)=Cc1ccc(F)c(C)c1
Concentration: 1 µM
For sample C colorectal tumour organoid; replicate 2; relative to: DMSO: viability read 80.9%.
For sample BA colorectal tumour organoid; relative to: DMSO: viability read 97.4%.
It gave 79.4% for viability (sample B colorectal tumour organoid; replicate 1; relative to: DMSO).
For sample I colorectal tumour organoid; replicate 1; relative to: DMSO: viability read 120%.
sample C colorectal tumour organoid; replicate 1; relative to: DMSO — viability: 90.2%.
sample D normal epithelium organoids; human patient-derived organoids; relative to: DMSO control — viability: 83.3% and 81%.
colorectal tumour organoids; relative to: DMSO — viability: 103%.
sample B colorectal tumour organoid; replicate 2; relative to: DMSO — viability: 98.1%.
The viability was 114% (sample I colorectal tumour organoid; replicate 2; relative to: DMSO).

Study 2
SMILES: c1ccc(-c2n[nH]c3c2oc2ccccc23)cc1
Effect on: enzyme activity
Action: inhibitor
Concentration: 0.5 µM
Relative to: control
It gave 96.7% for remaining activity (PRKCD (Homo sapiens, UniProt Q05655)).
MAPK12 (Homo sapiens, UniProt P53778) — remaining activity: 100%.
The remaining activity was 108% (LYN (Homo sapiens, UniProt P07948)).
IRAK4 (Homo sapiens, UniProt Q9NWZ3) — remaining activity: 92.7%.
It gave 102% for remaining activity (WNK2 (Homo sapiens, UniProt Q9Y3S1)).
The remaining activity was 38% (KIT (Homo sapiens, UniProt P10721)).
It gave 117% for remaining activity (CHEK1 (Homo sapiens, UniProt O14757)).
PRKG1 (Homo sapiens, UniProt Q13976) — remaining activity: 102%.
MAP4K2 (Homo sapiens, UniProt Q12851) — remaining activity: 61.8%.
The remaining activity was 102% (PLK2 (Homo sapiens, UniProt Q9NYY3)).
The remaining activity was 83.9% (Cyclin-dependent kinase 9, with cyclin T1 (CDK9, Homo sapiens, UniProt P50750)).
For MKNK2 (Homo sapiens, UniProt Q9HBH9): remaining activity read 70%.
The remaining activity was 91.4% (MAP3K10 (Homo sapiens, UniProt Q02779)).
For CSNK1A1 (Homo sapiens, UniProt P48729): remaining activity read 73.8%.
For LRRK2 (Homo sapiens, UniProt Q5S007): remaining activity read 91.4%.
The remaining activity was 84.4% (AKT3 (Homo sapiens, UniProt Q9Y243)).
MAPK13 (Homo sapiens, UniProt O15264) — remaining activity: 109%.
For MAP2K6 (Homo sapiens, UniProt P52564): remaining activity read 92.9%.
BTK (Homo sapiens, UniProt Q06187) — remaining activity: 96.4%.
The remaining activity was 85.9% (PRKCI (Homo sapiens, UniProt P41743)).
For CSNK2A1 (Homo sapiens, UniProt P68400): remaining activity read 87.2%.
The remaining activity was 92.9% (NEK4 (Homo sapiens, UniProt P51957)).
For EPHA5 (Homo sapiens, UniProt P54756): remaining activity read 92.1%.

Study 3
Host: human
Sample: microsomes or S9
Concentration: 2 µM
Time: 0.5 h
`O=C(Cn1c(COc2ccc(Br)cc2Cl)noc1=O)Nc1cccc(Br)c1` has a remaining compound of 69.5%.
The remaining compound of `NC(=O)N1CCc2cc(NS(=O)(=O)c3cc(F)ccc3F)ccc21` is reported as greater than 100%.
`Cc1cc(C[C@@H]2COC[C@@H]2NC(=O)c2cc(=O)n(-c3ccccc3)[nH]2)on1` has a remaining compound of 74.6%.
`CCc1nnc(S(=O)(=O)C(C)C(=O)NCC2CCCCC2)[nH]1` (stereo not shown) gave a remaining compound of greater than 100%.
For `COc1ccc(Br)cc1CNC(=O)C(C)n1nc(C)n2c(cc3occc32)c1=O` (stereo not shown), the remaining compound was 1.59%.
`COc1cc(CNC(C)(C)C)cc(Br)c1OCc1cccs1` has a remaining compound of 3.48%.
`COC(=O)c1cccc(OCCn2c(=O)[nH]c3cc(F)c(F)cc3c2=O)c1` gave a remaining compound of 0.00351%.
`Cc1nc(-c2ccccc2C)n(CC(O)c2ccccc2)n1` (stereo not shown) gave a remaining compound of 46.5%.
For `O=C(COc1ccccc1-c1nnc[nH]1)N1CCc2ccccc21`, the remaining compound was 97.4%.
With `Cc1ccc2cc(CNCC3COCCO3)c3nnnn3c2c1` (stereo not shown) the remaining compound was 86.1%.
For `CC(C)c1nc(COc2ccccc2-c2ccnc(N)n2)no1`, the remaining compound was 7.4%.
The remaining compound of `COc1cc2c(c(OC)c1OC)-c1c(cc(OC)c(OC)c1OC)C[C@](C)(O)[C@@H](C)C2` is reported as 99.5%.
With `CCC1(CC)NC(=O)N(Cc2cc3ccc(C)c(C)c3nc2Cl)C1=O` the remaining compound was 9.86%.
With `Cc1ccc(-c2ccccc2CN2C[C@@H](CN(C)C)[C@@H](CO)C2)o1` the remaining compound was 43.1%.
The remaining compound of `O=S1(=O)N=C(NCCc2cccs2)c2ccccc21` is reported as 77.8%.

Study 4
Organism: Sarcocystis neurona
Effect on: parasite growth
Concentration: 10 µM
Time: 96 h
Setting: first screen
Relative to: untreated
`COC(=O)C1=C(C)NC(C)=C(C(=O)OCC(C)C)C1c1ccccc1[N+](=O)[O-]` (stereo not shown) — result for “log2 fold change”: -0.24.
`O=C1c2cccc3c2[C@H](CCC3)CN1[C@@H]1CN2CCC1CC2` — result for “log2 fold change”: -0.44.
For `C#C[C@]1(O)CC[C@H]2[C@@H]3CCC4=CC(=O)CC[C@@H]4[C@H]3CC[C@@]21C`, “log2 fold change” read 0.19.
For `CNCCCN1c2ccccc2CCc2ccccc21`, “log2 fold change” read 0.0242.
For `COc1cc(NC(C)CCCN)c2ncccc2c1` (stereo not shown), “log2 fold change” read -5.9.
`CN1CC(=O)N2[C@H](c3ccc4c(c3)OCO4)c3[nH]c4ccccc4c3C[C@@H]2C1=O` — result for “log2 fold change”: -0.59.
For `Cc1ncc([N+](=O)[O-])n1CC(O)CCl` (stereo not shown), “log2 fold change” read 0.0257.
`CC(=O)O[C@]1(C(C)=O)CC[C@H]2[C@@H]3C=C(C)C4=CC(=O)CC[C@]4(C)[C@H]3CC[C@@]21C` — result for “log2 fold change”: -0.33.
`Cc1ccc(O)c([C@H](CCN(C(C)C)C(C)C)c2ccccc2)c1` — result for “log2 fold change”: -0.19.
`S=c1[nH]cnc2nc[nH]c12` — result for “log2 fold change”: -1.48.
`Cc1c2oc3c(C)ccc(C(=O)N[C@@H]4C(=O)N[C@H](C(C)C)C(=O)N5CCC[C@H]5C(=O)N(C)CC(=O)N(C)[C@@H](C(C)C)C(=O)O[C@@H]4C)c3nc-2c(C(=O)N[C@@H]2C(=O)N[C@H](C(C)C)C(=O)N3CCC[C@H]3C(=O)N(C)CC(=O)N(C)[C@@H](C(C)C)C(=O)O[C@@H]2C)c(N)c1=O`: “log2 fold change” -0.53.
Under “log2 fold change”, `Cc1c(O)cccc1C(=O)N[C@@H](CSc1ccccc1)[C@H](O)CN1C[C@H]2CCCC[C@H]2C[C@H]1C(=O)NC(C)(C)C` is recorded as -1.85.
`CC(=O)NS(=O)(=O)c1ccc(N)cc1`: “log2 fold change” 0.2.
For `CCOC(=O)O[C@]1(C(=O)OCCl)CC[C@H]2[C@@H]3CCC4=CC(=O)C=C[C@]4(C)[C@H]3[C@@H](O)C[C@@]21C`, “log2 fold change” read -0.0738.
Under “log2 fold change”, `CC(=O)Nc1ccc(CC(=O)O)cc1` is recorded as 0.0654.
`OC(Cn1cncn1)(Cn1cncn1)c1ccc(F)cc1F` — result for “log2 fold change”: 0.0442.
For `COc1ccnc(C[S+]([O-])c2nc3ccc(OC(F)F)cc3[nH]2)c1OC` (stereo not shown), “log2 fold change” read 0.12.

A few entries again (study 3):
`Cc1cc(C[C@@H]2COC[C@@H]2NC(=O)c2cc(=O)n(-c3ccccc3)[nH]2)on1` has a remaining compound of 74.6%.
`CCc1nnc(S(=O)(=O)C(C)C(=O)NCC2CCCCC2)[nH]1` (stereo not shown) gave a remaining compound of greater than 100%.
For `COc1ccc(Br)cc1CNC(=O)C(C)n1nc(C)n2c(cc3occc32)c1=O` (stereo not shown), the remaining compound was 1.59%.
`COc1cc(CNC(C)(C)C)cc(Br)c1OCc1cccs1` has a remaining compound of 3.48%.
`COC(=O)c1cccc(OCCn2c(=O)[nH]c3cc(F)c(F)cc3c2=O)c1` gave a remaining compound of 0.00351%.
`Cc1nc(-c2ccccc2C)n(CC(O)c2ccccc2)n1` (stereo not shown) gave a remaining compound of 46.5%.
For `O=C(COc1ccccc1-c1nnc[nH]1)N1CCc2ccccc21`, the remaining compound was 97.4%.
With `Cc1ccc2cc(CNCC3COCCO3)c3nnnn3c2c1` (stereo not shown) the remaining compound was 86.1%.
